Measured values gathered from unrelated publications.
A part holds a random share of what one study measured. Changes are numbered by the printed parent chain.

Series 1
Target: Sal-like protein 4, full length isoform B (SALL4, Homo sapiens, UniProt Q9UJQ4-2, residues 1-616)
Method: universal PBM
Molecule type: double-stranded DNA, one strand shown
Sample: in vitro
Tested at: not given
Setting: 8-mer, flanks averaged, mean of replicates
Direction: higher = stronger binding
Sequence	E-score
CCTAGGAG	-0.112
AGGGACTC	-0.199
GGCGCCTA	-0.108
TCGTTTCA	0.0917
GGCAGTGA	-0.236
AGATATCC	0.169
ATTCTATC	0.225
AGCGTTTC	-0.119
AGCCGGTA	-0.26
CGAGTAAG	-0.104
GACATAAA	0.275
ACAAGTAC	0.104
CCGGGCTC	-0.381
GGCACGTA	-0.0807
AAATCATG	0.196
ACGGAATA	0.0771
CGGATGAC	-0.244
CTAAACAC	0.192
CCTTGGTA	-0.0303
CCAGTGGA	-0.348

Series 2
Target: RING finger protein unkempt homolog, zinc fingers 1-6, GST-SBP tag (UNK, Homo sapiens, UniProt Q9C0B0, residues 30-357)
Method: RNA Bind-n-Seq
Molecule type: RNA
Sample: in vitro
Tested at: not given
Setting: RNA with constant flanks, human-mouse chimeric sites, ends assumed
Relative to: input RNA pool
Direction: higher = stronger binding
All sequences stand within: GGGAGUUCUACAGUCCGACGAUC … CAACAGAGGAUUGAGCAUCA
Residues (chain): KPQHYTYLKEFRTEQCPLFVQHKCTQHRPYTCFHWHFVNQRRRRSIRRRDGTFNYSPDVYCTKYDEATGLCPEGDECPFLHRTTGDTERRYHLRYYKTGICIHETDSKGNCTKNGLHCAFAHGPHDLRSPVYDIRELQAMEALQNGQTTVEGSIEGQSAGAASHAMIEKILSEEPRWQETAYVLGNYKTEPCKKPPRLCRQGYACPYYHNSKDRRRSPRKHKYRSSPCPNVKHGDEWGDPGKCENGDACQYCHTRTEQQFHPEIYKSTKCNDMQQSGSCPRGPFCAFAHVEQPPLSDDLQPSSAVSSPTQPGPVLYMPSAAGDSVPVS
Sequence	bound/input enrichment [ratio]
GAACCUGCUCUCUCUGAUGAAGAUGAGGAAGACAAUGAUGAUGUUGAACCUAUUACUGAAUUUCGAUUUGUGCCCAGUGAUAAGUCAGCAUUGGAGGCGAUGUUCACAGCAAUGUGUGAG	0.205
CACUCGAGGGCUGCCGUUUUCUGUUUCUCCCUGGGCUGCGGAAAGCCAGAAGAUUUUAUCUAGCUUAUACAAGGCUGCUGGUGUUCCCUCCCUCCCGCCACGAGGGUGUUUUUGGCUGCA	0.312
GUACUGCAGCAGCAGGGAAAACUGCAGGAAGCACUGAUGCACUAUAAGGAGGCUAUUCGAAUCAGUCCUACCUUUGCUGAUGCCUACUCUAAUAUGGGAAACACUCUAAAGGAGAUGCAG	0.318
CAGGGCACAGCACCUACCCCCUCCUCCUUUCCACACCUGCAAACUCUUUUACUUGGGCUGAAUAUUUAGUGUAAUUACAUCUCAGCUUUGAGGGCUCCCUGUGGCAAUUCCCGGAUUAAA	1.28
UACUCAACUUUCUUUCCACGUUUUGAAUUCCAAGACAUUAUUCCUCCAGAUGACUUCCUAACGAGUGAUGAAGAGCAAGAUUUGGUUUUAUUUGGAACUAUGAGAGGACAAGUUGUUGGA	0.131
GUGCCCUUCUCGCUGCUGCGGAGCCCGAGCUGGGAACACCCCUUCCGCUGGUACCCUGCACACAGCCGCCUCUUCGAUCAAGCUUUCGGGCUGCCCCGGUUGCCCGAUGAGUGGUCGCAG	0.155
AGGAGGAGGUUAAAGGGUGAGAGUGGGGUGGAAGACUGUGUCAUGGCUCUGGAGACACUGUUCAGUGUUCUGCUUUCUCUGUGCAGACUGAUGGCCCCCUACACACCCUUUCUGACUGAG	0.0574
GAGCGUCUCGCUCGAACUGGGAUCAUCGUGACCACUAGUGAGGCUGUCCUCCUACAGCUGGUGGCUGACAAAGACCACCCGAAGUUCAAGGAAAUUCAGAAUCUAAUUAAGGCGAGUGCC	0.104

Series 3
Target: RNA binding protein fox-1 homolog 2, RRM domain, GST-SBP tag (RBFOX2, Homo sapiens, UniProt O43251-10, residues 100-194)
Method: RNA Bind-n-Seq
Molecule type: RNA
Sample: in vitro
Tested at: 365 nM
Setting: natural RNA segment, single round, ends assumed
Relative to: no-protein control
Direction: higher = stronger binding
All sequences stand within: GGGAGUUCUACAGUCCGACGAUC … UGGAAUUCUCGGGUGCCAA
Construct (chain): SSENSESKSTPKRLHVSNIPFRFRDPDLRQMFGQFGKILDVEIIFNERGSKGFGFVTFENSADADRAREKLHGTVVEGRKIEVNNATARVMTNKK
Sequence	RBNS enrichment (R)
UUUCUUAGAAUACUUGCAAUUACUAAUGACCCCUUCCCUUUCCCUCCUGCUGCCCUGUCCACCCUCUUUCCCCUUCUAACAUCCUUAGAGGGAUGAAAUCUCAGCAUAUG	0.573
CCAGUAUGUGUCUUCUUCUCCAGAUAGUGAAAAAGGUGUCCAGAUAAACCCACCUAAGUGAAAUGGCCAUCCUCUAAACUGGGUACCUCACUGCACAGCUUCUAGGUAGC	0.401
CUCCCUCUCAGUGUCUCCCUCUUGGAUCUGUAGAUCUUCCCUUUGUGUCCUGGCCAGCCCCCAAAUGGCAUUCUAGUGCACAAAUCAUAGGAUGAGAGUUAUACUCCUGU	0.726
UCAUGCUGCUGAGCCUCUAUUUUCUUUCUUUGAUGUUUUGAUUCAGUAUUCUUUUAUCAUAAAUUUUUAGCAUUUAAAAAUUCACUGAUGUACAUUAAGCCAAUAAACUG	0.578
GCUUAGUGAUACAAAUACAUUUCUCUGUAGACUUCCUUAAGGAAAGACGUGAGUAGAGCUAGGUUGGGCAGAUGGACAGGUGGCAAUAGUAAGCUUAUCCGAAGCCUACA	0.31
CAAGAGAGAAGAACUAAAGAAGUUCUUUUUAUUCCUCGUUACCAAAUAAAUCAUUUCUCUCUUUACCAUGCAGUGUUACUUUUUCUCCCCCGGGCUGCUGGUCUGAUGAG	0.752
CCUAGCCCAGCCUUCCCACUGCCCCAGGAAAAGCUCUUCUCCUGGCCACCUCUGCCCCCCAGCACCUCAAACUUGCAUGGCUGGGCUGUGGCCUCUGCGGCCAGGAAGCC	7.71
GGUUUAUCUUUGAGAUGAUAAAGCUAAAUUAUAGUCUUUUGCCAGAGAAACUGAGGUAACUGUCAUUAGAAAAGGUUUCUUAAAAUACUCACAAAGCUGUUAUUGGCUUC	0.509

Series 4
Target: CCNE2, cyclin fold, Cln2 fusion (human)
Method: yeast growth competition, sequencing
Sample: yeast
Setting: strong parent motif
Relative to: not given
Direction: higher = stronger binding
Starting sequence: PPP1R3F docking peptide (human); VAPRRVLFADEAL; partner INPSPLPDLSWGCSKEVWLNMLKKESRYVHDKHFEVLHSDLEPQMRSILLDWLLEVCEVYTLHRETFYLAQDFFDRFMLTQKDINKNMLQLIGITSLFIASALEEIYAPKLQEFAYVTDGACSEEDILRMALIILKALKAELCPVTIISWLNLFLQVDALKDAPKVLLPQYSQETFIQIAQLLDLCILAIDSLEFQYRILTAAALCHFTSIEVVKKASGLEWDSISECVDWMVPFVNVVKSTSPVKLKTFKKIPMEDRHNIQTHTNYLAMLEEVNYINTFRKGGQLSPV
Change	normalised enrichment score
V6A	0.27
R4A	0.654
F8L	0.498
R5K	0.304
R5A L7A	-0.268
R5A	0.562
L13A	1.38
V1A	1.94

For quick reference, copied from above (series 2):
Sequence	bound/input enrichment [ratio]
GUACUGCAGCAGCAGGGAAAACUGCAGGAAGCACUGAUGCACUAUAAGGAGGCUAUUCGAAUCAGUCCUACCUUUGCUGAUGCCUACUCUAAUAUGGGAAACACUCUAAAGGAGAUGCAG	0.318
CAGGGCACAGCACCUACCCCCUCCUCCUUUCCACACCUGCAAACUCUUUUACUUGGGCUGAAUAUUUAGUGUAAUUACAUCUCAGCUUUGAGGGCUCCCUGUGGCAAUUCCCGGAUUAAA	1.28
UACUCAACUUUCUUUCCACGUUUUGAAUUCCAAGACAUUAUUCCUCCAGAUGACUUCCUAACGAGUGAUGAAGAGCAAGAUUUGGUUUUAUUUGGAACUAUGAGAGGACAAGUUGUUGGA	0.131
GUGCCCUUCUCGCUGCUGCGGAGCCCGAGCUGGGAACACCCCUUCCGCUGGUACCCUGCACACAGCCGCCUCUUCGAUCAAGCUUUCGGGCUGCCCCGGUUGCCCGAUGAGUGGUCGCAG	0.155
